Measured values of several laboratories.
A part holds a random share of what one study measured. Changes are numbered by the printed parent chain.

Block 1
Target: Sal-like protein 4, full length isoform B (SALL4, Homo sapiens, UniProt Q9UJQ4-2, residues 1-616)
Technique: universal PBM
Form: double-stranded DNA, one strand shown
Medium: in vitro
Tested at: not given
Notes: 8-mer, flanks averaged, mean of replicates
Reading: higher = stronger binding
Strand | E-score
AGGTACTA | 0.0941
CGTCCCGC | -0.303
ATGCAAGA | 0.119
GGACCAAC | -0.232
ACCGGCTC | -0.218
AGTCCAGA | 0.00865
ATGGAGCG | -0.0613
AGCCAGCG | -0.313

Block 2
Target: DBP, bZIP domain (human)
Technique: DHFR protein complementation
Medium: yeast
Notes: single substitutions, most at no-binding floor
Relative to: wild-type JUN-FOS pair
Reading: higher = stronger binding
Starting sequence: JUN, bZIP domain (human); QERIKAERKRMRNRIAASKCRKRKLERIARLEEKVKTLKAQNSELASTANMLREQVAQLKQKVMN; partner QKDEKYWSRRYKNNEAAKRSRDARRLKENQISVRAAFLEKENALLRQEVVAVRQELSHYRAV
Change | binding fitness
E32C | -1.48 natural log
R53A | -1.4 natural log
T48V | -1.49 natural log
R53G | -1.5 natural log
V35L | -1.28 natural log
A49R | -1.44 natural log
K39C | -1.54 natural log
V35D | -1.49 natural log

Block 3
Target: Probable WRKY transcription factor 33, C-terminal DNA-binding domain (WRKY33, Arabidopsis thaliana, UniProt Q8S8P5, residues 346-449)
Technique: DNA-protein interaction ELISA
Form: double-stranded DNA, one strand shown
Medium: in vitro, bacterial lysate
Tested at: not given
Notes: whole dsDNA probe, crude lysate protein
Relative to: highest signal in screen
Reading: higher = stronger binding
Residues (chain): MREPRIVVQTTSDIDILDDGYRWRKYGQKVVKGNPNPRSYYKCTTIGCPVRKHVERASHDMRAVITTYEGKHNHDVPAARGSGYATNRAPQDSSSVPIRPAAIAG
Strand | relative absorbance
AAAAAACCGTCTTATCTCTCGTCCCTAAAA | 58.1 % of maximum
AAAAAATTTTGTTTTTGCTTTTCCTTAAAA | 24.3 % of maximum
AAAAAAAAGCGTTACATCATATGGAAAAAA | 27.1 % of maximum
AAAAAATCATCTCTATGTTATTGTTGAAAA | 29.4 % of maximum
AAAAAAGATGATTAGTAATTGCGGAAAAAA | 28.9 % of maximum
AAAAAAAAGCTTCGGAGTCTTGAGAAAAAA | 71.7 % of maximum
AAAAAATCGGGCCCCGTTAGCACTCTAAAA | 32.8 % of maximum
AAAAAAATTACGCGGGATCGCCAAAA | 42.3 % of maximum

Mixed results
Starting sequence: viral docking peptide; CKVKRKLFGSENI
Change | target | test | system | conditions | scale | measurement | result
I13A | CCNE2, cyclin fold, Cln2 fusion (human) | yeast growth competition, sequencing | yeast | strong parent motif | relative to: not given, higher = stronger binding | normalised enrichment score | 3.92

A few entries again (block 1):
Strand | E-score
AGTCCAGA | 0.00865
ACCGGCTC | -0.218
ATGGAGCG | -0.0613
CGTCCCGC | -0.303
